Measured values collected from several papers.
A part holds a random share of what one study measured. “And” joins repeats or separate records; there may be more than shown.
Chain of UniProt Q86YV6 (whole entry, looked up): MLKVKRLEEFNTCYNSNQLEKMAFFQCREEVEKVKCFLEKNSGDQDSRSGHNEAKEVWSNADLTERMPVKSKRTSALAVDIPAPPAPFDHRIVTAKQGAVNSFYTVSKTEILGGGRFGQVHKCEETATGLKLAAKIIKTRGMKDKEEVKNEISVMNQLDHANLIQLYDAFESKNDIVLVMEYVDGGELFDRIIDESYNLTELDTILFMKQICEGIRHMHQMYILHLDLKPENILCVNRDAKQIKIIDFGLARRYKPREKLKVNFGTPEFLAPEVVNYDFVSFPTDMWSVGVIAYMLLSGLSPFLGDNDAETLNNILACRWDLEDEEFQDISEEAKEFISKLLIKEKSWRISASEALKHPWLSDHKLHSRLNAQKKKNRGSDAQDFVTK
Chain of UniProt Q8N4C8 (whole entry, looked up): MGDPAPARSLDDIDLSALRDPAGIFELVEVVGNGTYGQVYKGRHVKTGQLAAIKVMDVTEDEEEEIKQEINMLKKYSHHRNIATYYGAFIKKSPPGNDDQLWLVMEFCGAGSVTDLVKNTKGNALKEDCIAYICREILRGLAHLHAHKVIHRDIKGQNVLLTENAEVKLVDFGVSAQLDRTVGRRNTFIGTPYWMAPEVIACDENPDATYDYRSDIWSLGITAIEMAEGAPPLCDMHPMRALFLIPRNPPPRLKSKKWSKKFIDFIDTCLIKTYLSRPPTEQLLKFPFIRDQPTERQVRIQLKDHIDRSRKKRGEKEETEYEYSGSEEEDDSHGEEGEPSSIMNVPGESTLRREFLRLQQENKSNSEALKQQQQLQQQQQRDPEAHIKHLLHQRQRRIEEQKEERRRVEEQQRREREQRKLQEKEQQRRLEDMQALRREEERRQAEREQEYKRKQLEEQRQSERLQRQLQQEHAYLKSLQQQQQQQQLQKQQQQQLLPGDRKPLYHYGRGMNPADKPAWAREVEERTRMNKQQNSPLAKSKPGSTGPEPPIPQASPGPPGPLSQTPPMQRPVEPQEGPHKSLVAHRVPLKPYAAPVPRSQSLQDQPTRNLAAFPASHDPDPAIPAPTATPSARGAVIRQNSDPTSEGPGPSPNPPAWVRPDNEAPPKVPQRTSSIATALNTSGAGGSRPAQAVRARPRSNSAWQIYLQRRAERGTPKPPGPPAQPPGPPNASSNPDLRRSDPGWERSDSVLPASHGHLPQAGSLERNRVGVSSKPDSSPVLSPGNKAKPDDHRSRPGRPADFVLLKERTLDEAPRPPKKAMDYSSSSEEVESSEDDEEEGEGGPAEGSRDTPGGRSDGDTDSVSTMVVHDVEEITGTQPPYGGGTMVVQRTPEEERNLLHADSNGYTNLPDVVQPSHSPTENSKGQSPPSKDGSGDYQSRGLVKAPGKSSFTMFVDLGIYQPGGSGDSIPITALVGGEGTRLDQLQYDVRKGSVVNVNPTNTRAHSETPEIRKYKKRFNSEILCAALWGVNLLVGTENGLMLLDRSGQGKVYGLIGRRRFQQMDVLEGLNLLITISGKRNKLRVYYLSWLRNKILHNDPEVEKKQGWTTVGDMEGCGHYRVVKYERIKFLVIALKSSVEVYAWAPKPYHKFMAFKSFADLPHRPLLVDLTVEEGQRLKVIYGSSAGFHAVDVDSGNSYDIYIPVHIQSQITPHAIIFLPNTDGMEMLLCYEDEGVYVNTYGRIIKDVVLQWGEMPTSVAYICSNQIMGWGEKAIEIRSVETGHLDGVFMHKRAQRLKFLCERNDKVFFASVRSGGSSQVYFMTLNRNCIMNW
Chain of UniProt Q13464 (whole entry, looked up): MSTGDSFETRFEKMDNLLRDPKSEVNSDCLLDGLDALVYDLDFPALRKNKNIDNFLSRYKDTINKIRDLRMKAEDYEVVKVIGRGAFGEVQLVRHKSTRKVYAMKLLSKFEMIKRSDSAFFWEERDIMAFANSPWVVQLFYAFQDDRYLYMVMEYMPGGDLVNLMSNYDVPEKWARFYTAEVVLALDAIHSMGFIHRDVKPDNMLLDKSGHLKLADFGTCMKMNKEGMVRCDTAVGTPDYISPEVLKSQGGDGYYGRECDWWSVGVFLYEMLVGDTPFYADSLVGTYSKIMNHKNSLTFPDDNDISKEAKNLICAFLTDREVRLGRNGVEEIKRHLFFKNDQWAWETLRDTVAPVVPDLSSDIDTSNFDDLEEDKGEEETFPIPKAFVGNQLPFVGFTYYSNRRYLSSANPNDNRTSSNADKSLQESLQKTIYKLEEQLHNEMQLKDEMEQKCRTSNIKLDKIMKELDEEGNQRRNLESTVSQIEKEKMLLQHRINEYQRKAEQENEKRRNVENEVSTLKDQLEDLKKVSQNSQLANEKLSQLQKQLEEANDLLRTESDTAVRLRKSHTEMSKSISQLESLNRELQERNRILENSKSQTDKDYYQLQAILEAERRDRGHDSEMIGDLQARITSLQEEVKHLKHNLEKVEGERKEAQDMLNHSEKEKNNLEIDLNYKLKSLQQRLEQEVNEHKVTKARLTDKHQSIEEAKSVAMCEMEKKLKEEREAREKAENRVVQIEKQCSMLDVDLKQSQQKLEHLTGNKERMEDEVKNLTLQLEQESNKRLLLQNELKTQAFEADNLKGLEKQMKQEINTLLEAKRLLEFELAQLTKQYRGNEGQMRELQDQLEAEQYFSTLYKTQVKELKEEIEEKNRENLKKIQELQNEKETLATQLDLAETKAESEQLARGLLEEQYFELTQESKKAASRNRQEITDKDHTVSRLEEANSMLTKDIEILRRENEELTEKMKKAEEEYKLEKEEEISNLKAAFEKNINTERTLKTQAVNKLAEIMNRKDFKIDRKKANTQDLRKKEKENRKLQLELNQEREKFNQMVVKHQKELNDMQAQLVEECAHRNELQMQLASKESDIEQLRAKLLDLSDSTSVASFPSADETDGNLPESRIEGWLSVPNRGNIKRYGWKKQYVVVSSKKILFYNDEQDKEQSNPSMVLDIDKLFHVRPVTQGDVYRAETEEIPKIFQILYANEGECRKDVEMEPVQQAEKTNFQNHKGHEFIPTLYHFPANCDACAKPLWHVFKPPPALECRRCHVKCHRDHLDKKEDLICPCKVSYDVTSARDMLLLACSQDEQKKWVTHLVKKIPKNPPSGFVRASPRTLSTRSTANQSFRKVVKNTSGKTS
Chain of UniProt Q7KZI7 (whole entry, looked up): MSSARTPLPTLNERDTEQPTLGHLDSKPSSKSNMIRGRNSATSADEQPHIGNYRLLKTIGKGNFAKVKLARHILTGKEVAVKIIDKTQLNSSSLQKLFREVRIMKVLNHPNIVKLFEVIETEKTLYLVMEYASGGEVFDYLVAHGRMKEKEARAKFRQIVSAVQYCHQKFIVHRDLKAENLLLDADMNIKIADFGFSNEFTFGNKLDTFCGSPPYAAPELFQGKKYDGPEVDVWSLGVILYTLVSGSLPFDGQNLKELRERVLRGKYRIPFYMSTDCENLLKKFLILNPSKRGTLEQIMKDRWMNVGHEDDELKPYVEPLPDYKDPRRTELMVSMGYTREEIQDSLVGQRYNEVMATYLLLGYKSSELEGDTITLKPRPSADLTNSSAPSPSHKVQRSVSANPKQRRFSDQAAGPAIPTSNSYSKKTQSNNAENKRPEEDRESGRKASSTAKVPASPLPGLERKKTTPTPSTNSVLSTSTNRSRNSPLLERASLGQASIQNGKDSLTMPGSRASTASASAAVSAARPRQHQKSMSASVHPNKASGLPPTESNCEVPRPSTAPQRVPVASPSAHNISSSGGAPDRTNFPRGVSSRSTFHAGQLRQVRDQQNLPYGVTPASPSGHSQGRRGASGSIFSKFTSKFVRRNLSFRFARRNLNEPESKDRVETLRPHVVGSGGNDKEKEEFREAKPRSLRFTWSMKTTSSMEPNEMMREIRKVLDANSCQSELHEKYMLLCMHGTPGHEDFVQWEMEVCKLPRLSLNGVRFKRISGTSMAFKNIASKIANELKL
Chain of UniProt Q15759 (whole entry, looked up): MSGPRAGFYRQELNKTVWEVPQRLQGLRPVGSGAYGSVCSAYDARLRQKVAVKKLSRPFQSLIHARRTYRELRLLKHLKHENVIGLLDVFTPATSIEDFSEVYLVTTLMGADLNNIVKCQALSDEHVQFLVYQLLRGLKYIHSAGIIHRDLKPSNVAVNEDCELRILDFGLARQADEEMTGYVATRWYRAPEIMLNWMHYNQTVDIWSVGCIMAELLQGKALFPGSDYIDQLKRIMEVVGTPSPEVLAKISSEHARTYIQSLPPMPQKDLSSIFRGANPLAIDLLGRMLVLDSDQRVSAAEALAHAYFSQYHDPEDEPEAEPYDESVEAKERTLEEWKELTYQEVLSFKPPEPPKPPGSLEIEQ
Chain of UniProt Q9H1R3 (whole entry, looked up): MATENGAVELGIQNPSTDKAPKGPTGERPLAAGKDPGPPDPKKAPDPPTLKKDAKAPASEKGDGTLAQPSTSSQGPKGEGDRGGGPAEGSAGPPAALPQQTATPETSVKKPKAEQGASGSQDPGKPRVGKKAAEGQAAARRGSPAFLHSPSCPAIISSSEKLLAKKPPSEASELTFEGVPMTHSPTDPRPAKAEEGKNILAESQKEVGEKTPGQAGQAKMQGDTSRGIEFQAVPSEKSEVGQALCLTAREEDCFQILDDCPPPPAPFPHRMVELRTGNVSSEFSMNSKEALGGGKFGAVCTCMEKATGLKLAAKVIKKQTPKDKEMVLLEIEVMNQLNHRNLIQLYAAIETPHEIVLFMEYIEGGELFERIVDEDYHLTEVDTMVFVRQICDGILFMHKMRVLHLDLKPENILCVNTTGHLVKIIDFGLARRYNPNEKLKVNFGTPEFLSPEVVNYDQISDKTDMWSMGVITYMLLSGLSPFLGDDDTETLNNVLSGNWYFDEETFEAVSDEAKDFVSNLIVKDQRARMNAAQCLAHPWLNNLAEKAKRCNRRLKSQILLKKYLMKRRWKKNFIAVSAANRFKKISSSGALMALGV

Sample 1 — cell line: HaCaT; concentration: 100 µM; time: 18 h
| Compound | viability |
| --- | --- |
| CC(=O)OCC(=O)[C@@]12OC3(CCCC3)O[C@@H]1C[C@H]1[C@@H]3CCC4=CC(=O)C=C[C@]4(C)[C@@]3(F)[C@@H](O)C[C@@]12C | 42.5% |
| C#C[C@]1(OC(C)=O)CC[C@H]2[C@@H]3CCC4=C[C@@H](OC(C)=O)CC[C@@H]4[C@H]3CC[C@@]21C | 54.2% |
| O=C(O)c1cccnc1Nc1cccc(C(F)(F)F)c1 | 88% |
| CC[C@]1(O)C[C@H]2CN(CCc3c([nH]c4ccccc34)[C@@](C(=O)OC)(c3cc4c(cc3OC)N(C=O)[C@H]3[C@@](O)(C(=O)OC)[C@H](OC(C)=O)[C@]5(CC)C=CCN6CC[C@]43[C@@H]65)C2)C1 | 72.5% |
| Clc1ccc(C(Cn2ccnc2)OCc2c(Cl)cccc2Cl)c(Cl)c1 (stereo not shown) | 87.3% |

Sample 2 — SMILES: COc1ccc(-c2cnc3c(-c4ccsc4)cnn3c2)cc1; effect on: enzyme activity; action: inhibitor; concentration: 0.5 µM; baseline: control
| target | remaining activity [%] |
| --- | --- |
| Cyclin-dependent kinase 1, with cyclin A (CDK1, Homo sapiens, UniProt P06493) | 87.4 |
| Mitogen-activated protein kinase 1 (MAPK1, Homo sapiens, UniProt P28482) | 99.2 |
| Dual specificity mitogen-activated protein kinase kinase 1 (MAP2K1, Homo sapiens, UniProt Q02750) | 98.2 |
| Mitogen-activated protein kinase 11 (MAPK11, Homo sapiens, UniProt Q15759) | 84.1 |
| Rho-associated protein kinase 1 (ROCK1, Homo sapiens, UniProt Q13464) | 95.7 |
| Misshapen-like kinase 1 (MINK1, Homo sapiens, UniProt Q8N4C8) | 63.7 |
| Mitogen-activated protein kinase 14 (MAPK14, Homo sapiens, UniProt Q16539) | 120 |
| G protein-coupled receptor kinase 4 (GRK4, Homo sapiens, UniProt P32298) | 97 |
| Serine/threonine-protein kinase MARK2 (MARK2, Homo sapiens, UniProt Q7KZI7) | 82.1 |
| Tyrosine-protein kinase TXK (TXK, Homo sapiens, UniProt P42681) | 85.2 |
| Hepatocyte growth factor receptor (MET, Homo sapiens, UniProt P08581) | 86.3 |
| Myosin-IIIb (MYO3B, Homo sapiens, UniProt Q8WXR4) | 84 |
| Serine/threonine-protein kinase Nek3 (NEK3, Homo sapiens, UniProt P51956) | 87.7 |
| Cyclin-dependent kinase 9, with cyclin K (CDK9, Homo sapiens, UniProt P50750) | 76.9 |

Sample 3 — species: mouse; matrix: microsomes or S9; concentration: 2 µM; time: 0.5 h
| SMILES | remaining compound [%] |
| --- | --- |
| CCS(=O)(=O)CC(C)N(C)c1cnc(C#N)cn1 (stereo not shown) | 52.6 |
| COc1cc(Cn2c(-c3nnc(C)o3)cc3ccccc32)cc(OC)c1 | 7.61 |
| CC(C)(C)NC(=O)NC(=O)CN1CCCC1CN1CCCCC1 (stereo not shown) | 97.7 |
| CC(C)(C)OC(=O)NC(CC(=O)N1CCCCCN1C(=O)c1cccc(C#N)c1)Cc1ccccc1F (stereo not shown) | 35.6 |

Sample 4 — effect on: cell-free assay; technique: competition with immobilised ligand; concentration: 1 µM
SMILES: O=C1CCc2cc(Nc3cc(OC4CCOCC4)c([N+](=O)[O-])cc3Cl)ccc2N1
| target | remaining binding [%] |
| --- | --- |
| Myosin light chain kinase 2, skeletal/cardiac muscle (MYLK2, Homo sapiens, UniProt Q9H1R3) | 90 |
| Non-receptor tyrosine-protein kinase TYK2, JH1 (TYK2, Homo sapiens, UniProt P29597) | 100 |
| Myosin light chain kinase family member 4 (MYLK4, Homo sapiens, UniProt Q86YV6) | 96 |
| Receptor-type tyrosine-protein kinase FLT3, autoinhibited (FLT3, Homo sapiens, UniProt P36888) | 99 |
| Epidermal growth factor receptor (EGFR, Homo sapiens, UniProt P00533, del746-750) | 100 |

Sample 5 — cell line: mouse MPNST tumor cells; technique: high-content nuclear imaging; measured: cell number; concentration: 10 µM; time: 12 h; notes: mean of 2 replicates; baseline: plate mean; reading: higher = more cells
| Compound | nuclei count |
| --- | --- |
| COc1ccc([C@@H]2Sc3ccccc3N(CCN(C)C)C(=O)[C@@H]2OC(C)=O)cc1 | 3.61 z-score and 3.18 z-score |
| NC(=O)c1nc(Nc2ccccc2)sc1NC(=O)C1CCCCC1 | 2.18 z-score |
| CC(N)CCCC(C)(C)O (stereo not shown) | -0.274 z-score |

Excerpt of the above (sample 4):
| target | remaining binding [%] |
| --- | --- |
| Non-receptor tyrosine-protein kinase TYK2, JH1 (TYK2, Homo sapiens, UniProt P29597) | 100 |
| Myosin light chain kinase family member 4 (MYLK4, Homo sapiens, UniProt Q86YV6) | 96 |
| Receptor-type tyrosine-protein kinase FLT3, autoinhibited (FLT3, Homo sapiens, UniProt P36888) | 99 |
